# Measured values gathered from unrelated publications.
# Numbered parts are unrelated; each lists some results of a single study. Changes are numbered by the printed parent chain.

# Series 1 — method: universal PBM; molecule type: double-stranded DNA, one strand shown; medium: in vitro; tested at: 600 nM; direction: higher = stronger binding
# Target: Sal-like protein 4, full length isoform A (SALL4, Homo sapiens, UniProt Q9UJQ4, residues 1-1053)
# Sequence of UniProt Q9UJQ4 (whole entry, looked up): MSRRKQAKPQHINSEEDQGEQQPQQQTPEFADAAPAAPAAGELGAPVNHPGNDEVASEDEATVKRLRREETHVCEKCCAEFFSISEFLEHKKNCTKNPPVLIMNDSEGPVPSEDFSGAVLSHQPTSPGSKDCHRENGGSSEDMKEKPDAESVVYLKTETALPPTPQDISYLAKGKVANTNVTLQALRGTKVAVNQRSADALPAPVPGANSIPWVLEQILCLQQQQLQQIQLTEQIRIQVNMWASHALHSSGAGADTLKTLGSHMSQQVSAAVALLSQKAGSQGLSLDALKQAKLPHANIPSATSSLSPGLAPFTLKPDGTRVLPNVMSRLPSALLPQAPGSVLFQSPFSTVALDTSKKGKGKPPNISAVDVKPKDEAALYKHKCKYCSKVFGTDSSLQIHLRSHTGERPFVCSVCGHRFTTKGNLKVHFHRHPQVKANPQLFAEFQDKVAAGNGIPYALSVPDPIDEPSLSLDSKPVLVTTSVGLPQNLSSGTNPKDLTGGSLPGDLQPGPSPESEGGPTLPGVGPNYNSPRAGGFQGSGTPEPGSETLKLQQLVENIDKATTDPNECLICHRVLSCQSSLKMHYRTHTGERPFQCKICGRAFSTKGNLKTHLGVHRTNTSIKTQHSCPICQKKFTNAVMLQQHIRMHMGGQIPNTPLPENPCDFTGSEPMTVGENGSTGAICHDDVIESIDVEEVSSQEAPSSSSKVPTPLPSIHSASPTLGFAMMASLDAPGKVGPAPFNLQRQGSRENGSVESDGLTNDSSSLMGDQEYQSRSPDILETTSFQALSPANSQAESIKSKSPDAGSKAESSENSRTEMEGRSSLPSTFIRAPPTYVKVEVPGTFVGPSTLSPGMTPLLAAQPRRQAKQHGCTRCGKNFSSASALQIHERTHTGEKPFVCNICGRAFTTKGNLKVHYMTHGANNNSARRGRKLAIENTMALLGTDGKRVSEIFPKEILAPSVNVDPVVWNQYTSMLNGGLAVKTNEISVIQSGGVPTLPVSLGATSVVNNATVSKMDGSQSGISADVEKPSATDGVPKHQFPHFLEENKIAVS
# Setting: 8-mer, flanks averaged, mean of replicates
Oligonucleotide,E-score
AACGGCCT,-0.224
GACGTTTA,0.0982
GCAACCAA,0.0357
CCGGCGGA,-0.295
CAATCATC,0.0983
AATACCTG,0.122
CCTTTGTA,0.0596
CGCGGTGC,-0.388

# Series 2 — target: inorganic phosphate, free oxyanion; method: microfluidic competitive inhibition; medium: in vitro, cell-free expressed; tested at: not given; direction: lower = stronger binding
# Setting: derived from inhibition constants, unchanged parent 615000 nM
# Starting sequence: PafA, mature enzyme, eGFP fusion (Elizabethkingia meningoseptica, UniProt Q9KJX5); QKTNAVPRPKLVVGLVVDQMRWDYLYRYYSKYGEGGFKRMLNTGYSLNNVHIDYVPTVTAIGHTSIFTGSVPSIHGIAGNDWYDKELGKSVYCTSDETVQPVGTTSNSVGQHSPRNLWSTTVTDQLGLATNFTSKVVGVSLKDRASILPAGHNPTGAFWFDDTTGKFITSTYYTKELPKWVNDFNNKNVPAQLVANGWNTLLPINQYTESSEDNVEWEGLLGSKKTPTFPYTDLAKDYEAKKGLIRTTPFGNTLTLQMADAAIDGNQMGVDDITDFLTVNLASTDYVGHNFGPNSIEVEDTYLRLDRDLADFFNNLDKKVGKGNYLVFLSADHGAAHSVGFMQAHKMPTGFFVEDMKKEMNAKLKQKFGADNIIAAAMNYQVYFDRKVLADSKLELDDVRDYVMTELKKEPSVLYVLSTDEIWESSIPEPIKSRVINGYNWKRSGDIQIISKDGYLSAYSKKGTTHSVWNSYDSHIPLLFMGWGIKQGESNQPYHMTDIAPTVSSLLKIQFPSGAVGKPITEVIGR
Change,phosphate dissociation constant [µM]
S223V,573
Y325G,511
Y472G,251
P501G,463
Y415V,495
C93V,470
V50G,348
A261V,610
K2V,709
K38G,460
L220G,483
G340A,516
G445V,63.7
E34V,698
N188V,627
G488A,517
W217V,224
L117G,471
K175G,602

# Series 3 — read-out: binding; method: phage display NGS; molecule type: peptide; relative to: input library
# Target: UDP-N-acetylglucosamine--peptide N-acetylglucosaminyltransferase 110 kDa subunit (OGT, Homo sapiens, UniProt O15294)
# Sequence of UniProt O15294 (whole entry, looked up): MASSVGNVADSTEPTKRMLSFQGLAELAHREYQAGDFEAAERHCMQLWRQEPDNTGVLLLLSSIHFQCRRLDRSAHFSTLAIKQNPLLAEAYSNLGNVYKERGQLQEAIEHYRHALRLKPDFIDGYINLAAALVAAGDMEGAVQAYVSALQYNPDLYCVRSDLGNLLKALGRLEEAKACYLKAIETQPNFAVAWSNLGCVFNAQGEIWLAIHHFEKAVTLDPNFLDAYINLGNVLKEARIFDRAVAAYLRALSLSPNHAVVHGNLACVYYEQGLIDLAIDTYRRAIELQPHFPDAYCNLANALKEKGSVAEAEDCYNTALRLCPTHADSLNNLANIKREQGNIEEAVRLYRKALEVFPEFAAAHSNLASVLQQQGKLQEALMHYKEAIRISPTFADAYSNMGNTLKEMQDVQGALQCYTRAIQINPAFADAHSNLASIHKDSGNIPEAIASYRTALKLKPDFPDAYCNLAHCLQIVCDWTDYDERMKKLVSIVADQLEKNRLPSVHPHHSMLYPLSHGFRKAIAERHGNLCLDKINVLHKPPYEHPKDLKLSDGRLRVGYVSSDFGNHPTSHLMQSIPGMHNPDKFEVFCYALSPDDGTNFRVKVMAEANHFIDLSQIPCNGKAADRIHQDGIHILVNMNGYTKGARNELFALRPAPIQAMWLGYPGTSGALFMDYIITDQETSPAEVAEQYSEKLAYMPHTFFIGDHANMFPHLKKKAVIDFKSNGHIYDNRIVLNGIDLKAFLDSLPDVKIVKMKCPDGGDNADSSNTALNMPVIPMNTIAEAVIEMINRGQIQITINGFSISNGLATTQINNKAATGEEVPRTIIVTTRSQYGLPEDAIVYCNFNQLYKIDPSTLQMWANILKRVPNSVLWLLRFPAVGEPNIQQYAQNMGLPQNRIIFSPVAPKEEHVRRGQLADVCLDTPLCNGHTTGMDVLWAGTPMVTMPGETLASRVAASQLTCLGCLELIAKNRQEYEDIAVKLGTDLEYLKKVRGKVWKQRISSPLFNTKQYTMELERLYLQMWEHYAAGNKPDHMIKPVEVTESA
Sequence,minimum log2 enrichment ratio
HRQHHVTDSMNPYRT,2.37
HNHHSHASQMPKFDV,1.6
HQHRDMRTHPSHGAI,3.27
TIYLPKYQIFTAIT,4.99
HINHHHQSITIPWWN,5.87
HYTPHQQQRAHAKWS,3.77
HLKHHYLAFTTHHPG,3
HWHPLHQQMPHDMGS,3.7
HTRADFHHFHHDVEQ,2.59
TKNAYSPQYQISYIF,3.76
TIIHHTSTANRQHAS,2.87
SFPHRVHHEHSYYEH,3.15
HDVAMAKLHHQQFDY,1.25
YPWHRPHQHTYERDE,2.42
TQGMHPQRPHHVGY,2.14
HVYHKNHADTHAVAH,3.11
HGIYWRGLADHGLD,2.33
HQQQHHEVSGHHLVR,2.12
HTAWQPWINGHDHHH,3.2
KDIRQDYLPFYQITV,4.82
NLIIDFMPKYQLFYQ,4.15
HQRHGQHQQVFFHID,3.23
DYIYGHSHPHIMNHN,3.26
TWEWPYHRHMQHPFA,3.9
DPQQYLPQYQIFLPI,5.01

# Series 4 — target: CCND1, cyclin fold, Cln2 fusion (human); method: yeast growth competition, sequencing; medium: yeast; setting: strong parent motif; relative to: not given; direction: higher = stronger binding
# Starting sequence: viral docking peptide; KGVKRKLFAEDSS; partner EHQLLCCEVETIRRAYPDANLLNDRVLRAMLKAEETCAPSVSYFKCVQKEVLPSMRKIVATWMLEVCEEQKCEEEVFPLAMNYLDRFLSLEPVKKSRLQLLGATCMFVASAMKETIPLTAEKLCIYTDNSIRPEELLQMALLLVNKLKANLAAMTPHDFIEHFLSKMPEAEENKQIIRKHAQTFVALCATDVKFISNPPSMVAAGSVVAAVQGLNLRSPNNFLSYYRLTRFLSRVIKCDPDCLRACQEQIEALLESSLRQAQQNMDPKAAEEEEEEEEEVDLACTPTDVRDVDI
Change,normalised enrichment score
KGKKRKLFAEDSS [V3K],-0.146
KHVKRKLFAEDSS [G2H],1.42
KGVYRKLFAEDSS [K4Y],0.271
KGQKRKLFAEDSS [V3Q],0.194
KGVKVKLFAEDSS [R5V],0.799
KGVKFKLFAEDSS [R5F],0.234
KSVKRKLFAEDSS [G2S],2.08
KFVKRKLFAEDSS [G2F],0.95
KGVKRKLFAEDDS [S12D],2.72
KGVKRKLFAEVSS [D11V],0.536
KGVFRKLFAEDSS [K4F],0.343
KGVKLKLFAEDSS [R5L],0.0806
KGVKRKLFAEISS [D11I],0.441

# Some of these lines once more (series 2):
Change,phosphate dissociation constant [µM]
G340A,516
K2V,709
Y325G,511
G445V,63.7
W217V,224
